Experimental data of several laboratories.
Protocols differ between the studies behind these lines. Numbers after ± are the reported error.

The MRT of `CC(C)C[C@@H](NC(=O)[C@H](NC(=O)[C@H]1CCCN1)[C@H](C)O)C(=O)N[C@H](Cc1c[nH]cn1)C(=O)N[C@@H](C(=O)N[C@H](Cc1c[nH]cn1)C(=O)N[C@H](CC(N)=O)C(=O)N[C@H](CCCNC(=N)N)C(=O)N[C@H](CCCNC(=N)N)C(=O)N[C@H](CCCNC(=N)N)C(=O)N[C@H](CCCNC(=N)N)C(=O)N[C@H](CCCNC(=N)N)C(N)=O)[C@H](C)O` is reported as 40 h (beagle dog, plasma; oral, 20 mg/kg, single dose).
With `CC1(C)CNC(=O)c2ccccc21` the AUC(0-t) was 937 ± 370 ng·h/mL (Sprague-Dawley rat, male, plasma; intravenous, 1 mg/kg).
Under “hindpaw heat sensitivity”, `CC(=O)[CH](C(C)=O)[Pt-2]1([S+](C)C)[O]C(C)=CC(C)=[O+]1` (centres unmarked) is recorded as “no effect” (thermal paw stimulator; rat; dose not given).
For `CC(C)[C@H](NC(=O)[C@@H]1CCCN1C(=O)[C@H](CCCNC(=N)N)NC(=O)[C@H](CS)NC(=O)[C@H](Cc1c[nH]c2ccccc12)NC(=O)[C@H](CCCNC(=N)N)NC(=O)[C@@H](Cc1ccccc1)NC(=O)[C@H](Cc1c[nH]cn1)NC(=O)[C@H](CCC(=O)O)NC(=O)[C@H](CS)NC(=O)[C@H](CS)NC(=O)[C@@H]1CC(=O)N[C@@H](CCCNC(=N)N)C(=O)NCC(=O)N[C@@H](CC(=O)O)C(=O)N[C@H](Cc2ccc(O)cc2)C(=O)N1)C(N)=O` [technetium-99m labelled], “tumour to tissue ratio” read 60.5 (C57 mouse, female, B16/F1 melanoma; intravenous, 0.037 MBq, 4 h; baseline: tumour over muscle).
Under “intact parent fraction”, `CN(C(=O)Cn1c(=O)oc2ccc(-c3ccc(OCC[18F])cc3)cc21)c1ccccc1` is recorded as 76.4 ± 2.1% (ischemic Sprague-Dawley rats, brain; intravenous, 10 MBq radiolabelled, 60 min).
With `O=C(CCc1ccc(CNC(C(=O)OC2CCCC2)C2CCCCC2)cn1)NO` (centres unmarked) the half-life was 0.343 h (human, plasma; oral, 20 mg, single dose, geometric mean).
The Vz/F of `COc1ccnc(C[S+]([O-])c2nc3cc(-n4cccc4)ccc3[nH]2)c1C` (centres unmarked) is reported as 42.7 ± 68.3 L/kg (male Sprague Dawley rats, plasma; oral, 5 mg/kg of ilaprazole racemate).
For `Cc1[nH]c(/C=C2\C(=O)Nc3ccc(F)cc32)c(C)c1NC(=O)CCN1CCN(C)CC1`, “AUC extrapolated share” read 1.96 ± 1.2% (Beagle dog (both sexes), plasma; oral, 3 mg/kg, single dose tablet).
With `Nc1nccc(-c2cn(C3CC3)c3ccccc23)n1` the excreted amount was 0.94% (radio-HPLC, co-eluting peaks pooled; human male, feces; oral, 110 mg, 0 to 240 h, sample holds 81.99% dose; baseline: dose).
For `COc1cccc(C=NCCCN(C)CCN(C)CCCN=Cc2cccc(OC)c2[O-])c1[O-].[67Ga+3]`, “tissue uptake ratio” read 1.8 ± 0.4 (rat; intravenous, 1 min; baseline: heart over liver).
For `COc1ccc(-c2csc(N/N=C(\C)c3cc(O)cc(O)c3)n2)cc1`, “concentration after storage” read 898 ng/mL (LC-MS/MS; rat plasma; 1000 ng/mL, freeze-thaw 5 cycles at -70 °C).
The weighted half-life of `CC1=CC(C)=[N+]2C1=Cc1ccc(CCC(=O)N3CCN(C(=O)c4cc(Cc5n[nH]c(=O)c6ccccc56)ccc4F)CC3)n1[B-]2(F)F` is reported as 0.408 h (athymic nude NU/J mouse, whole blood; intravenous, 2.5 mg/kg).
`CCc1c2c(nc3ccc(O)cc13)-c1cc3c(c(=O)n1C2)COC(=O)[C@]3(O)CC` has an AUC(0-inf) of 738 ng·h/mL (human patients, plasma; intravenous, 75 mg/m^2 of parent drug).
For `CC(=O)N[C@H](CCNC(=O)c1cc(NC(=O)c2cc(NC(=O)c3cc(NC(=O)c4nccn4C)cn3C)cn2C)cn1C)C(=O)Nc1cn(C)c(C(=O)Nc2cc(C(=O)Nc3cc(C(=O)Nc4cc(C(=O)NCCCN(C)CCCN[14C](=O)c5cccc([14C](=O)O)c5)n(C)c4)n(C)c3)n(C)c2)n1`, the pancreas concentration was 0.15 mg/kg (BALB/c male mouse; intraperitoneal, 15 nmol per animal, 24 h).
With `Cc1ccc(-c2ccc(-c3cc4sccc4o3)cn2)nc1` the fluorescence lifetime was 0.85 ns (TCSPC; hexanes).
For `[11CH3]c1ccc2nc(C3CCC3)n(-c3ccc4[nH]ncc4c3)c2n1`, “intact parent fraction” read 26% (radio-HPLC; Sprague-Dawley rat, plasma; 30 min).
`CN1CCC[C@]1(C)/C=C/S(=O)(=O)NC(=O)Nc1c2c(cc3c1CCC3)CCC2` — result for “Tmax after first dose, median”: 1 h (human, plasma; oral, 50 mg twice daily, day 14, multiple ascending dose).
`Cc1ccc(OCC(=O)O)cc1` has a t1/2 of 1.63 h (Sprague-Dawley rat, male, plasma; oral, 10 mg/kg/day of parent drug, day 1, 90-day repeated dosing).
For `Nc1ncnc2c1nc(-n1nnc3c1CCC1C(CO)C1CC3)n2C1OC(CO)C(O)C1O` (mixture of isomers), “fluorescence lifetime τ2” read 0.8 ns (frequency-domain fluorometry; methanol).
`CCCC[C@@H]1NC(=O)[C@@H](NC(=O)[C@H](CCC(=O)O)NC(=O)CNC(=O)CN2CCN(CC(=O)O)CCN(CC(=O)O)CCN(CC(=O)O)CC2)CCCCNC(=O)C[C@@H](C(N)=O)NC(=O)[C@H](C(C)C)NC(=O)[C@@H]2CCCN2C(=O)[C@H](CCCNC(=N)N)NC(=O)CNC(=O)[C@H](Cc2c[nH]c3ccccc23)NC(=O)[C@H](CCCNC(=N)N)NC(=O)[C@@H](Cc2ccccc2)NC(=O)[C@H](Cc2c[nH]cn2)NC(=O)[C@H](CCC(=O)O)NC1=O` [gallium-67 labelled] — result for “tumour to liver ratio”: 56.2 (C57 mice with B16/F1 melanoma; intravenous, 0.037 MBq/mouse, 2 h; baseline: tumour over liver).
The HC50 of `CC(CCCOC(=O)CCC[N+](C)(C)C)C1CCC2C3C(OC(=O)CCC[N+](C)(C)C)CC4CC(OC(=O)CCC[N+](C)(C)C)CCC4(C)C3CC(OC(=O)CCC[N+](C)(C)C)C12C` (centres unmarked) is reported as > 1000 µg/mL (mouse red blood cells; 1 h, 37 °C).
With `CC(C)[C@H](NC(=O)CNC(=O)[C@H](CCC(N)=O)NC(=O)[C@H](C)N)C(=O)O` the clearance was 1020 mL/min/kg (LC-MS/MS; human, plasma; intravenous, 30 mg/kg, single dose, geometric mean).
With `Cn1c(=O)oc2ccc(-c3ccc(CC(C#N)NC(=O)C4CNCCCO4)c(F)c3)cc21` (centres unmarked) the AUC(0-inf) was 3700 ng·h/mL (human, fed, plasma; 40 mg single dose, geometric mean).
For `CN1CCC(N[C@@H]2CCc3[nH]c4c(C(N)=O)ccc(-c5ccccc5Cl)c4c3C2)CC1`, the AUC(0-inf) was 479 ± 144 ng·h/mL (BALB/c mice, plasma; oral, 10 mg/kg).
`O=c1[nH]c(N2CCC3(CC2)CN(CCO)c2cc(F)cc(F)c23)nc2c1CCCC2`: “body weight and behaviour” “no effect” (NOD-SCID mouse, xenograft; intraperitoneal, 100 and 300 mg/kg daily).
The CL/F of `O=C1OC2(c3ccccc31)c1cc(I)c(O)c(I)c1Oc1c2cc(I)c(O)c1I` is reported as 1930 mL/min/kg (female C57BL/6 mouse, plasma; oral, 100 mg/kg).
`CC(C)c1cnc(-c2cc(Cl)ccc2F)cc1Nc1ccncc1C(=O)NC(CO)CO` — result for “patients with treatment-related adverse event”: 0% (monotherapy, item: myalgia; human patients; oral, dose not given, grade 4, phase I A).
For `O=C([O][Ti+2][O]C(=O)c1ccc(P(c2ccccc2)c2ccccc2)cc1)c1ccc(P(c2ccccc2)c2ccccc2)cc1.[Cl][Au].[Cl][Au].c1cc[cH-]c1.c1cc[cH-]c1`, “absorption rate constant” read 1.3 h⁻¹ (ICP-MS, item: gold; NOD.CB17-Prkdc scid/J mice, blood; 7.5 mg/kg, after first injection).
With `O=c1c(O)c(-c2ccc(O)c(O)c2)oc2cc(O[C@@H]3O[C@H](CO)[C@@H](O)[C@H](O)[C@H]3O)cc(O)c12` the concentration decrease was < 10% (human plasma; concentration not given, three freeze-thaw cycles).

Repeated from above:
`O=c1[nH]c(N2CCC3(CC2)CN(CCO)c2cc(F)cc(F)c23)nc2c1CCCC2`: “body weight and behaviour” “no effect” (NOD-SCID mouse, xenograft; intraperitoneal, 100 and 300 mg/kg daily).
The CL/F of `O=C1OC2(c3ccccc31)c1cc(I)c(O)c(I)c1Oc1c2cc(I)c(O)c1I` is reported as 1930 mL/min/kg (female C57BL/6 mouse, plasma; oral, 100 mg/kg).
